Experimental data collected from several papers.
Each line is one published result; not all experiments were run side by side. “And” joins repeats or separate records; there may be more than shown. ± gives the spread as reported.

Under “change in EEG Beta2-power Pz-O1”, `OC(CCN1CCCCC1)(c1ccccc1)C1CC2C=CC1C2` (stereo not drawn) is recorded as -6.3% (resting-state EEG; healthy elderly humans; oral, 2 mg, eyes closed, LS mean; baseline: baseline).
For `NCC(=O)Nc1cncc(-c2nn3c(=O)cc(N4CCNCC4)nc3s2)c1`, the inhibition was 6.8% (ADP-induced platelet aggregation, light transmission aggregometry; human, stable CAD on aspirin, ex vivo platelets; subcutaneous, 0.04 mg/kg, 90 min post-dose, median value, added: ADP 20 µM).
`OC[C@H]1O[C@@H](O[C@H]2[C@H](O)[C@@H](O)[C@H](O)O[C@@H]2CO)[C@H](O)[C@@H](O)[C@@H]1O`: “log2 fold change” -0.217 (binding, MIDAS equilibrium dialysis LC-MS; A2AR-BRIL thermostabilized; concentration not given; baseline: no-protein control).
`CC1(C)OCCn2c1nc1c(N3CCOCC3)nc(-c3cnc(N)nc3)nc12`: “GSEA enrichment score” 0.195 (RNA sequencing, refers to: HALLMARK_INTERFERON_GAMMA_RESPONSE; MB002 tumour; concentration not given; baseline: vehicle, direction not given).
The inhibition of `Cc1cnc(N2CC3(CCOCC3)C2)c(C(=O)Nc2ccc(C(=O)N3CCc4cc(C(=O)Nc5c(C)cccc5F)sc4-c4ccccc43)cc2)c1` is reported as 8% (refers to: IL-4; human RSV infection, nasal wash; dose not given, AUC, ITT-IS population; baseline: placebo).
With `C[C@H]1O[C@@H](O[C@H]2CC[C@@]3(C)[C@@H](CC[C@]4(C)[C@@H]3C=C[C@]35OC[C@@]6(CCC(C)(C)C[C@H]63)[C@@H](O)C[C@]54C)[C@]2(C)CO)[C@H](O)[C@@H](O[C@@H]2O[C@H](CO)[C@@H](O)[C@H](O)[C@H]2O)[C@H]1O` the adipose area was 21.3% and 23.2% and 20.6% and 23.7% (H&E staining; chronic-plus-binge ethanol mice; dose not given, low dose).
For `NC(=O)c1cnc2[nH]ccc2c1N[C@@H]1[C@@H]2CC3C[C@H]1C[C@@](O)(C3)C2`, “change from baseline” read -0.17% (flow cytometry, refers to: regulatory T cells; Japanese healthy subjects, peripheral blood; oral, 30 mg twice daily, day 4).
Under “patients with IPA above 90%”, `CSCCNc1nc(SCCC(F)(F)F)nc2c1ncn2[C@@H]1O[C@H](COP(=O)(O)OP(=O)(O)C(Cl)(Cl)P(=O)(O)O)[C@@H](O)[C@H]1O` is recorded as 0% (platelet aggregation, light transmission aggregometry; human patients, platelet-rich plasma; dose not given, 3 h, added: TRAP 15 µM).
`CC(C)[C@H](C(=O)Nc1ccc(C(=O)NO)cc1)c1ccccc1` has a tumour volume of 0.574 cm³ (MRI volumetry; human, left parieto-occipital meningioma; dose not given, day 2790 post-treatment).
`Cn1cc(Nc2nccc(-c3ccc4c(c3)CN(C3COC3)CC[C@H]4NC(=O)c3cn(C(C)(C)C)nn3)n2)cn1` — result for “pathway activation z-score”: 2.83 (refers to: HMGB1 signalling; mouse splenic B cells, mouse; 30 mg/kg, IgD-activated B cells in vivo; baseline: vehicle, direction not given).
`C[C@H]1C[C@H]2CSC(N)=N[C@@]2(c2nc(NC(=O)c3ccc(OC(F)F)cn3)cs2)CO1`: “percent change from baseline” -60.8% (refers to: total Aβ; healthy adults, plasma; 160 mg single dose, 24 h post-dose; baseline: placebo).
With `Cc1cc([C@H]2C[C@H]3[C@@H](CF)SC(N)=N[C@@]3(c3ccc(F)cc3F)CO2)on1` the Aβ40 level was 1.28 ng/mL (refers to: Aβx-40; Mus musculus wild-type, cerebrospinal fluid; subcutaneous, 100 mg/kg, 14 h).
For `O=C(O)C(=O)CO`, “log2 fold change” read -0.686 (binding, MIDAS equilibrium dialysis LC-MS; A2AR-BRIL thermostabilized; concentration not given; baseline: no-protein control).
`N#CCC1CCN(c2nc(Nc3ccc(N4CCC(O)CC4)cc3)c3c(=O)[nH]ncc3n2)CC1`: “GIF level change” 1.08 (Olink multiplex; human, serum; 20 mg, day 15, unit not given; baseline: baseline).
For `CC(C)NCC(O)c1ccc(O)c(O)c1` (stereo not drawn), the sarcomere length was 1.72 µm (ventricular cardiomyocytes, C57BL/6 mouse; dose not given, 0.34 s).
For `N#C/C(=C\C1CC1)c1ccncc1`, “β-elimination rate constant” read 0.058 min⁻¹ (pH 7.4).
`N#Cc1ccn2c(-c3ccncc3)c(-c3ccc(F)cc3)nc2c1`: “log2 fold change” -0.0922 (kinase binding, competitor, MIB/MS competition, refers to: MCK1; Candida albicans cell lysate; 100 nM; baseline: DMSO).
For `CC(CNC(N)=O)C(=O)O` (racemic), “log2 fold change” read -0.0538 (binding, MIDAS equilibrium dialysis LC-MS; A2AR-BRIL thermostabilized; concentration not given; baseline: no-protein control).
`CCCCCN1C[C@H](O)[C@@H](O)[C@H](O)[C@@H]1CO` — result for “genomic disease score”: 0.62 (RNA sequencing, refers to: Hallmark apoptosis genes; Hexb-/- mouse, hippocampus; 300 mg/kg/day; direction not given).
`Cc1n[nH]c2ccc(-c3cc(OC[C@@H](N)Cc4ccccc4)cnc3-c3ccoc3)cc12` — result for “log2 fold change”: 0.0997 (kinase binding, competitor, MIB/MS competition, refers to: CKA2; Candida albicans cell lysate; 100 nM; baseline: DMSO).
`CCCCC1(CCCC)CN(c2ccccc2)c2cc(SC)c(OCC(=O)N[C@@H](C(=O)NCC(=O)O)c3ccccc3)cc2S(=O)(=O)C1` gave a plasma C4 of 31.4 ng/mL (refers to: 7α-hydroxy-4-cholesten-3-one; human, plasma; 2.5 mg once daily, day 13).
`O=C(O)CNC(=O)Cc1ccccc1` has a sarcomere length of 1.72 µm (ventricular cardiomyocytes, C57BL/6 mouse; dose not given, 0.04 s).
For `COc1nnc2ccc(N3CCC(c4ccc(OCCN5CCN(C)C(=O)[C@H]5C)cc4)CC3)nn12`, “time above HEXIM1 threshold” read 0.28 h (human patients; 10 mg twice daily, 2-fold above baseline, monotherapy and combination cohorts).
With `COc1cc2nccc(Oc3ccc(NC(=O)c4cc5c(n(-c6ccccc6)c4=O)CCCC5=O)nc3)c2cc1OC` the hazard ratio was 20.1 (Mantel-Haenszel; MOLM-13 luc/gfp xenograft, mice; diet, 0.004% in feed; baseline: control over treated).
For `N=C(N)NCCC[C@H](N)C(=O)O`, “log2 fold change” read 0.0425 (binding, MIDAS equilibrium dialysis LC-MS; A2AR-BRIL thermostabilized; concentration not given; baseline: no-protein control).
`Cc1noc(C)c1-c1cc(C(O)(c2ccccn2)c2ccccn2)c2nc(C3CC3)[nH]c2c1` gave a maximum induction of 79% (refers to: HEXIM1 expression; human, peripheral blood; 6 mg, day 8, 1604 study).
For `COc1cccc2c1C(=O)c1c(O)c3c(c(O)c1C2=O)C[C@@](O)(C(=O)CO)C[C@@H]3O[C@H]1C[C@H](N)[C@H](O)[C@H](C)O1`, the IC50 was 0.42 nM (organoid viability, CellTiter-Glo 3D; sample E colorectal cancer organoid, human; 6 days).
`Cn1cc(Nc2nc(N)nc(-c3cccc(-n4ccc5cc(C6CC6)cc(F)c5c4=O)c3CO)n2)cn1` gave an inhibition of 98% (CD63 upregulation, anti-IgE-induced; human, multiple ascending dose, whole blood basophils ex vivo; 300 mg twice daily, day 14, 6 h).
`CC[C@H]1[C@@H](O)[C@@H]2[C@H](CC[C@]3(C)[C@@H]([C@H](C)CCC(=O)O)CC[C@@H]23)[C@@]2(C)CC[C@@H](O)C[C@@H]12` gave a plasma insulin of 0.7 ± 0.1 ng/mL (C57BL/6J mouse, AMLN diet NASH model; dose not given, terminal).
`COc1ccc(F)cc1C(=O)NCc1ccc(-c2nn([C@@H](C)C(F)(F)F)c(N)c2C(N)=O)cc1` — result for “overall response rate”: 50% (follicular lymphoma patients; dose not given, all efficacy-evaluable patients).
For `CCCCCCCCCC(=O)O`, “log2 fold change” read 0.987 (binding, MIDAS equilibrium dialysis LC-MS; A2AR-BRIL thermostabilized; concentration not given; baseline: no-protein control).
Under “change from baseline”, `N#Cc1ccc2c(c1)[C@H]1CCCN(C(=O)c3ccc4[nH]cnc4c3)[C@H]1C2` is recorded as -0.83 mg/L (refers to: 1,5-anhydroglucitol; human; 20 mg once daily, day 28, adjusted mean).
`Cc1coc([C@H]2C[C@H]3[C@@H](CF)SC(N)=N[C@@]3(c3ccc(F)cc3F)CO2)n1` — result for “brain Aβ40 level”: 2.72 ng/g (refers to: Aβx-40; wild-type mouse, brain; subcutaneous, 80 mg/kg, 9 h).
For `N[C@@H](Cc1ccc(O)c(I)c1)C(=O)O`, “log2 fold change” read 0.0494 (binding, MIDAS equilibrium dialysis LC-MS; A2AR-BRIL thermostabilized; concentration not given; baseline: no-protein control).
`Cc1nc(C#Cc2cccnc2)cs1` — result for “spontaneous population spike amplitude”: 100 ± 5.4% (field recording; rat hippocampal slice CA3; 10 µM, 10 min; baseline: baseline).
For `C[C@H](Oc1ccc(Br)cc1-c1ccon1)C(=O)O`, “difference from placebo” read -0.209 ms (MVRC latency; human, tibialis anterior muscle; 400 mg, SAD).
`Nc1ncnc2c1ncn2[C@H]1C[C@H](O)[C@@H](COP(=O)(O)OP(=O)(O)OP(=O)(O)O)O1` — result for “log2 fold change”: -0.274 (binding, MIDAS equilibrium dialysis LC-MS; A2AR-BRIL thermostabilized; concentration not given; baseline: no-protein control).
Under “delta delta Ct”, `COc1ccc(-c2cncc(N[C@@H](C)c3cccc(NC(=O)c4cncc(C)c4)c3)n2)cc1OC` is recorded as -1.57 (refers to: rno-miR-154-5p; rat SU5416/hypoxia model, lung; dose not given, unit not given; baseline: SU5416/hypoxia vehicle).
For `c1ccc(-c2n[nH]cc2-c2ccnc3ccccc23)nc1`, “log2 fold change” read -1.18 (kinase binding, competitor, MIB/MS competition, refers to: YCK2; Candida albicans cell lysate; 10 µM; baseline: DMSO).
For `C[C@@H](O)CCOC(=O)C[C@@H](C)O`, the metabolite level was -4.73 ± 0.81 µmol/L (refers to: C10-OH/C8-DC acylcarnitine; human, plasma; 60 min, log2-transformed values).
For `O=c1[nH]cnc2c1ncn2[C@@H]1O[C@H](COP(=O)(O)OP(=O)(O)OP(=O)(O)O)[C@@H](O)[C@H]1O`, “log2 fold change” read -0.732 (binding, MIDAS equilibrium dialysis LC-MS; A2AR-BRIL thermostabilized; concentration not given; baseline: no-protein control).
`C[C@@H]1CCC[C@H](n2cnc(-c3cc(Cl)ccc3-n3cc(Cl)nn3)cc2=O)c2cc(ccn2)-c2c(cnn2C(F)F)NC1=O`: “concentration for aPTT prolongation” 270 nM (dog plasma; IC1.5× aPTT, Actin FS reagent).
`Cc1cc([C@H]2C[C@H]3[C@@H](C)SC(N)=N[C@@]3(c3ccc(F)cc3F)CO2)on1` — result for “brain Aβ40 level”: 2.43 ng/g (refers to: Aβx-40; wild-type mouse, brain; subcutaneous, 50 mg/kg, 18 h).
For `C[N+](C)(C)CCOC(N)=O`, the gamma-band power was 14 fold (field potential oscillations; mouse, hippocampal slice CA1 stratum pyramidale; 20 µM; baseline: baseline).
For `N#Cc1ccc2c(c1)[C@H]1CCCN(C(=O)c3ccc4[nH]cnc4c3)[C@H]1C2`, “fasting plasma insulin” read 15.3 mU/L (T2DM patients with overweight or obesity, plasma; oral, 80 mg, day 15 (360 h), multiple dosing, mean).
The inhibition of `O=C1O[C@H]([C@@H](O)CO)C(O)=C1O` is reported as 43.6% (nitric oxide scavenging; 120 µM).
`O=P(O)(O)C(Cl)(Cl)P(=O)(O)O` gave a distance travelled of 29 m and 25 m and 27 m and 31 m (open field test; UT+/+ and UT-/- mice, SAH; 23000 µg/mL).
For `C=CCn1c(=O)c2cnc(Nc3ccc(N4CCN(C)CC4)cc3)nc2n1-c1ccc2c(n1)[C@@](O)(CC)CC2`, “tumour growth inhibition” read 63.8% (NCI-H23 xenograft, NCG mice; oral, 80 mg/kg, day 35, once daily x 35).

For quick reference, copied from above:
`CCCCCN1C[C@H](O)[C@@H](O)[C@H](O)[C@@H]1CO` — result for “genomic disease score”: 0.62 (RNA sequencing, refers to: Hallmark apoptosis genes; Hexb-/- mouse, hippocampus; 300 mg/kg/day; direction not given).
For `O=C(O)C(=O)CO`, “log2 fold change” read -0.686 (binding, MIDAS equilibrium dialysis LC-MS; A2AR-BRIL thermostabilized; concentration not given; baseline: no-protein control).
For `C=CCn1c(=O)c2cnc(Nc3ccc(N4CCN(C)CC4)cc3)nc2n1-c1ccc2c(n1)[C@@](O)(CC)CC2`, “tumour growth inhibition” read 63.8% (NCI-H23 xenograft, NCG mice; oral, 80 mg/kg, day 35, once daily x 35).
Under “delta delta Ct”, `COc1ccc(-c2cncc(N[C@@H](C)c3cccc(NC(=O)c4cncc(C)c4)c3)n2)cc1OC` is recorded as -1.57 (refers to: rno-miR-154-5p; rat SU5416/hypoxia model, lung; dose not given, unit not given; baseline: SU5416/hypoxia vehicle).
For `C[C@H](Oc1ccc(Br)cc1-c1ccon1)C(=O)O`, “difference from placebo” read -0.209 ms (MVRC latency; human, tibialis anterior muscle; 400 mg, SAD).
For `NC(=O)c1cnc2[nH]ccc2c1N[C@@H]1[C@@H]2CC3C[C@H]1C[C@@](O)(C3)C2`, “change from baseline” read -0.17% (flow cytometry, refers to: regulatory T cells; Japanese healthy subjects, peripheral blood; oral, 30 mg twice daily, day 4).
`Cc1coc([C@H]2C[C@H]3[C@@H](CF)SC(N)=N[C@@]3(c3ccc(F)cc3F)CO2)n1` — result for “brain Aβ40 level”: 2.72 ng/g (refers to: Aβx-40; wild-type mouse, brain; subcutaneous, 80 mg/kg, 9 h).
Under “change in EEG Beta2-power Pz-O1”, `OC(CCN1CCCCC1)(c1ccccc1)C1CC2C=CC1C2` (stereo not drawn) is recorded as -6.3% (resting-state EEG; healthy elderly humans; oral, 2 mg, eyes closed, LS mean; baseline: baseline).
